Published values collected from several papers.
Compare with care: the assays were run in different laboratories. ± gives the spread as reported.
UCHL1: Ubiquitin carboxyl-terminal hydrolase isozyme L1 (UCHL1, Homo sapiens, UniProt P09936)
UniProt P09936, sequence (whole entry, looked up): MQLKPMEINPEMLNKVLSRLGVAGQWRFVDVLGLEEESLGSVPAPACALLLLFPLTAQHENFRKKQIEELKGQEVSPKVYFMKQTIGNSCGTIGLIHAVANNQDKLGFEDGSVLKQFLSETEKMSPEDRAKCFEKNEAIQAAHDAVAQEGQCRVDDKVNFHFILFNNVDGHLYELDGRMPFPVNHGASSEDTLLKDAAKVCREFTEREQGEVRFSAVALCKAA

Compound | tested on | assay | system | setting | endpoint | result
COC(=O)c1cccc(-c2cccc(Nc3nccc(NC4CCCCC4)n3)c2)c1 |  |  | MDCKII-WT cells | 10 µM, pH 7.4 | Papp (B to A) | 0.144 ± 0.075 ×10⁻⁶ cm/s
C[C@H]1O[C@@H](O[C@H]2[C@@H](O)C[C@H](O[C@H]3[C@@H](O)C[C@H](O[C@H]4CC[C@@]5(C)[C@H](CC[C@@H]6[C@@H]5C[C@@H](O)[C@]5(C)[C@@H](C7=CC(=O)OC7)CC[C@]65O)C4)O[C@@H]3C)O[C@@H]2C)C[C@H](O)[C@@H]1O |  |  | EpiIntestinal microtissues | 5 µM, 2 h, pH 6.5, basolateral pH 7.4 | Papp apical to basolateral | 2.2 ×10⁻⁶ cm/s
COc1cc2[nH]c(C)c(-c3ccc(C)cc3)c(=O)c2cc1Cl |  |  | PAMPA | pH 7.4 | Papp | < 5 ×10⁻⁶ cm/s
c1cncc(-c2cccc(Nc3nccc(NC4CCCCC4)n3)c2)c1 |  |  | MDCKII-WT cells | 10 µM, pH 7.4 | Papp (B to A) | 7.55 ± 2.77 ×10⁻⁶ cm/s
COc1cc2[nH]c(C)c(-c3ccncc3)c(=O)c2cc1Cl |  |  | PAMPA | pH 7.4 | Papp | < 5 ×10⁻⁶ cm/s
C[C@H]1[C@H](NC(=O)/C(=N\OC(C)(C)C(=O)O)c2csc(N)n2)C(=O)N1S(=O)(=O)O |  |  | EpiIntestinal microtissues | 5 µM, 2 h, pH 6.5, basolateral pH 7.4 | Papp apical to basolateral | 0.45 ×10⁻⁶ cm/s
CC(C)Nc1ccnc(Nc2cccc(-c3ccccc3)c2)n1 |  |  | MDCKII-WT cells | 10 µM, pH 7.4 | Papp (B to A) | 1.48 ± 0.281 ×10⁻⁶ cm/s
C[C@@H]1O[C@@H](O[C@H]2[C@H](Oc3cc(O)c4c(c3)O[C@H](c3ccc(O)cc3)CC4=O)O[C@H](CO)[C@@H](O)[C@@H]2O)[C@H](O)[C@H](O)[C@H]1O |  |  | artificial membrane diffusion cell | 50 mg/mL, 480 min, pH 6.8 | Papp | 1.4 ± 1.5 ×10⁻⁶ cm/s
CC(C)Nc1ccnc(Nc2cccc(-c3ccccn3)c2)n1 |  |  | MDCKII-WT cells | 10 µM, pH 7.4 | Papp (B to A) | 1.16 ± 0.878 ×10⁻⁶ cm/s
Nc1nc2c(ncn2COCCO)c(=O)[nH]1 |  |  | EpiIntestinal microtissues | 5 µM, 2 h, pH 6.5, basolateral pH 7.4 | Papp apical to basolateral | 1.3 ×10⁻⁶ cm/s
c1ccc(-c2cccc(Nc3nccc(NC4CCCCC4)n3)c2)nc1 |  |  | MDCKII-WT cells | 10 µM, pH 7.4 | Papp (A to B) | 17.3 ± 6.58 ×10⁻⁶ cm/s
COc1cc2[nH]c(C)c(-c3ccccc3OC(F)(F)F)c(=O)c2cc1Cl |  |  | PAMPA | pH 7.4 | Papp | 411 ×10⁻⁶ cm/s
CCN1CCCC1CNC(=O)c1cc(S(N)(=O)=O)ccc1OC (centres unmarked) |  |  | EpiIntestinal microtissues | 5 µM, 2 h, pH 6.5, basolateral pH 7.4 | Papp apical to basolateral | 0.59 ×10⁻⁶ cm/s
CCc1c(C)[nH]c2cc(OC)c(Cl)cc2c1=O |  |  | PAMPA | pH 7.4 | Papp | 57 ×10⁻⁶ cm/s
CC(C)Nc1ccnc(Nc2cccc(C(C)(C)C)c2)n1 |  |  | MDCKII-WT cells | 10 µM, pH 7.4 | Papp (B to A) | 2.09 ± 1.22 ×10⁻⁶ cm/s
CCCCCCOC(=O)NC(=N)c1ccc(NCc2nc3cc(C(=O)N(CCC(=O)OCC)c4ccccn4)ccc3n2C)cc1 |  |  | human EpiIntestinal microtissues | 5 µM, 2 h | Papp (B to A) | 0.14 ×10⁻⁶ cm/s
COc1cc2[nH]c(C)c(-c3ccc(COc4ccccc4)cc3)c(=O)c2cc1Cl |  |  | PAMPA | pH 7.4 | Papp | < 5 ×10⁻⁶ cm/s
COc1cc(CC2NC(=O)CN(Cc3ccccc3)C2=O)c(I)c(OC)c1 (centres unmarked) |  |  | bEnd.3 Transwell BBB model | 10 µg/mL, 120 min, 37 °C | Papp A to B | 161 ± 9.17 ×10⁻⁶ cm/s
CN/C(=N/CCSCc1nc[nH]c1C)NC#N |  |  | human EpiIntestinal microtissues | 5 µM, 2 h | Papp (A to B) | 3.6 ×10⁻⁶ cm/s
COc1cc2[nH]c(C)c(-c3ccc(N(C)C)cc3)c(=O)c2cc1Cl |  |  | PAMPA | pH 7.4 | Papp | 238 ×10⁻⁶ cm/s
O=C(CCl)c1ccc2c(c1)-c1ccccc1C2 | UCHL1 | covalent, intact protein LC-MS |  | 12.5 µM | labelling | 18.9%
CC(C)c1nc(N(C)S(C)(=O)=O)nc(-c2ccc(F)cc2)c1/C=C/[C@@H](O)C[C@@H](O)CC(=O)O |  |  | EpiIntestinal microtissues | 5 µM, 2 h, pH 6.5, basolateral pH 7.4 | Papp apical to basolateral | 2.1 ×10⁻⁶ cm/s
COc1cc2[nH]c(C)c(-c3ccc4nonc4c3)c(=O)c2cc1Cl |  |  | PAMPA | pH 7.4 | Papp | 256 ×10⁻⁶ cm/s
COc1ccc(-c2csc(NC(=O)CCl)n2)c(O)c1 | UCHL1 | covalent, intact protein LC-MS |  | 12.5 µM | labelling | 10.1%
CCOc1cc(-c2c(C)[nH]c3cc(OC)c(Cl)cc3c2=O)ccc1F |  |  | PAMPA | pH 7.4 | Papp | 145 ×10⁻⁶ cm/s
CC(C)Nc1ccnc(Nc2cccc(-c3ccncc3)c2)n1 |  |  | MDCKII-WT cells | 10 µM, pH 7.4 | Papp (B to A) | 40.7 ± 20.1 ×10⁻⁶ cm/s

A few entries again:
Compound | tested on | assay | system | setting | endpoint | result
C[C@H]1O[C@@H](O[C@H]2[C@@H](O)C[C@H](O[C@H]3[C@@H](O)C[C@H](O[C@H]4CC[C@@]5(C)[C@H](CC[C@@H]6[C@@H]5C[C@@H](O)[C@]5(C)[C@@H](C7=CC(=O)OC7)CC[C@]65O)C4)O[C@@H]3C)O[C@@H]2C)C[C@H](O)[C@@H]1O |  |  | EpiIntestinal microtissues | 5 µM, 2 h, pH 6.5, basolateral pH 7.4 | Papp apical to basolateral | 2.2 ×10⁻⁶ cm/s
COc1cc2[nH]c(C)c(-c3ccc(C)cc3)c(=O)c2cc1Cl |  |  | PAMPA | pH 7.4 | Papp | < 5 ×10⁻⁶ cm/s
